# Measurements pooled from the literature.
# Numbered parts are unrelated; each lists some results of a single study.

# Set 1 — technique: EMSA with sequencing; form: double-stranded DNA, one strand shown; matrix: in vitro; tested at: 10 and 20 nM; reference: negative control set to 0; direction: higher = stronger binding
# Target: Hepatocyte nuclear factor 3-alpha (Foxa1, Mus musculus, UniProt P35582, residues 1-468, full length assumed)
# Sequence of UniProt P35582 (whole entry, looked up): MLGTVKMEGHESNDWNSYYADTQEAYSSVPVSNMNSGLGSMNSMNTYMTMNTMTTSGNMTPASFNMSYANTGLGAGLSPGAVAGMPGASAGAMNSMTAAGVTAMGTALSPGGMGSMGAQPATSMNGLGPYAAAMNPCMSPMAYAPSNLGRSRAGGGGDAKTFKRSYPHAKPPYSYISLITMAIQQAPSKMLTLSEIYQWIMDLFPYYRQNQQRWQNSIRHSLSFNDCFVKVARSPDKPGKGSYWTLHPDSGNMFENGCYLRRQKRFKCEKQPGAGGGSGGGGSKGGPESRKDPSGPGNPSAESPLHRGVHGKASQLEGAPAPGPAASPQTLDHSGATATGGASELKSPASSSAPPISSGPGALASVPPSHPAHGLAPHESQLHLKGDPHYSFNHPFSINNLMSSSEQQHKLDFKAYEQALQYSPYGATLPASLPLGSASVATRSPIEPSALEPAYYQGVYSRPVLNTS
# Setting: whole designed probe, mean of two concentrations, ends assumed
# Constant ends, left off below: GTGAGCGGTGCCCATTGATGGGGAAC … TTTCACTGGGATCGTGGGGAC
Strand,normalised bound fraction [ratio]
AAGAATTTATACATATGCTTTTCAATATCTGCCCTATTTTTTCTTTTGTATTTAAAAAAAATAAAATTCTAAAGAGAGTAAAAATGTACAATGTAATCTTGTTGGTACAAAGAAGCTGAGAAGAGGATTTATTTTATATGTTATGAAGTATGAAATTTAGATATATAAGTAAGGTCTTGGAGAGAAGTTGTAC,0.00479
ACATTTGGGTCATTCCACCCTTTGACTAATGTGATCAGTGCTGCTCTGAACATTCGTGTATGAGTATTTGAGGATCGTTTTCACTTCTCTTGGGTAATCTTCTAGGAGTGAAATTGCTGAGTCATAGGGCAGTTTTATGTGTAACTACTTTTTGAGGAGTGCAGTGGCATAATCTTGCCTCACTGAAACCTCC,-0.048
AGAACATATAAATCAGCACAAACAATGTAATATCAGATGGCTTTCAAATAAGAGATTAGAAAATGTTGTCCAAAGATATAAATAATGTGAAAAGTAATTTAAAATGCATTTATTTCATTAAGATAGATGACATAACTTTTTTAATGTCAAGGAATTTAATAATCACCTCCCTAAAACTTAATGGGTCCTCCCC,0.0264
GTTATGTTTTTATACTACAAATTGCGGTAGGACTATGCTCAGAGCTATTGAGAGGAAATCAAGGAAAGACTCTGAACCTAAAGCTATTTTTTGCTGTTTACTTAGCCAACCAGTTGCCTCTTACCATCTCCCATTCAAACTAAAGTAAAATGTACTCCAAAATTATTCAAACTGCCTCTCTGTCTACATCCCT,0.331
ATCTTCCCCCTCTTCCTTGCCCCACCAGCTCACCTTCCCGGGTTGTTTACTTTGAGCAAAGTAAACAAAGCCGGCATTCGTTAACCCTCTTCTGGCGCAAACTGCACATTGGTCTGGATCTAACATGGTCCTTTGGCGACGCCAGGCTCCGGGAGAGCAAAGCACCGTGTCAGGGCCATGATCCGGGGTGGCC,0.518

# Set 2 — technique: protein-binding microarray; form: hairpin DNA; matrix: in vitro; tested at: not given; reference: not given; direction: higher = stronger binding
# Target: Cellular tumor antigen p53, full length (TP53, Homo sapiens, UniProt P04637, residues 1-393)
# Setting: whole hairpin DNA, median over replicate spots
Strand,median fluorescence
CCACACGGGGTGGCATGCCTTCCTAGGCATGCCACCCCGTGTGGACACTC (5mC at 37),6230 a.u.
CGGACACGCCCGGGCATGTCTCCTGACATGCCCGGGCGTGTCCGACACTC (5mC at 37),13900 a.u.
CGGACATGCACGGGCATGTCTCCTGACATGCCCGTGCATGTCCGACACTC,14800 a.u.
CCACCGGTGGTGGCATGCCTTCCTAGGCATGCCACCACCGGTGGACACTC (5mC at 39),6860 a.u.
CGGACATTCCCGGGCATGTCTCCTGACATGCCCGGGAATGTCCGACACTC,10700 a.u.
CGGACATGCCCGGGGATGTCTCCTGACATCCCCGGGCATGTCCGACACTC (5mC at 30),7910 a.u.
CGGACATGCCCGAGCATGTCTCCTGACATGCTCGGGCATGTCCGACACTC,16000 a.u.
CGGACATGCGCGGGCATGTCTCCTGACATGCCCGCGCATGTCCGACACTC (5mC at 9),15400 a.u.

# Set 3 — technique: protein binding microarray; form: double-stranded DNA, one strand shown; matrix: in vitro; tested at: not given; reference: not given; direction: higher = stronger binding
# Target: Histone acetyltransferase KAT6A, winged helix 2, GST fusion (KAT6A, Homo sapiens, UniProt Q92794, residues 85-181)
# Setting: 8-mer, flanks averaged, mean of 2 arrays, mostly near background
# Target sequence (chain): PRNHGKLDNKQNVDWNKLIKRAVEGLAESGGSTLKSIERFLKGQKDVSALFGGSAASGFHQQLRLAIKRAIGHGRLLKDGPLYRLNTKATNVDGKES
Strand,E-score
GAACCCGA,0.0859
CACTAGAA,-0.072
AACATACA,-0.0897
CCTATTAC,-0.108
AGCACACT,0.021
CTGGGCGA,0.11
GACTGCAA,-0.217
CGTCTTAG,-0.143

# Other studies, line by line
Compound,cell line,test,setting,how to read,quantity,value
O=C(NCc1ncc(C(F)(F)F)cc1Cl)c1ccc2c(c1)C1(CCS(=O)(=O)CC1)[C@@H](C1CC1)N2S(=O)(=O)c1ccc(F)cc1,sample F normal colon organoid,CellTiter-Glo,"1 µM, 4 days",reference: DMSO,viability,106%

# Repeated from above (set 3):
Strand,E-score
CGTCTTAG,-0.143
